Measurements from different studies.
Each numbered part is a random draw from the data of one study; scales do not carry over between parts. Substitutions count along the parent as printed.

Study 1
Target: RNA binding protein fox-1 homolog 2, RRM domain, GST-SBP tag (RBFOX2, Homo sapiens, UniProt O43251-10, residues 100-194)
Technique: RNA Bind-n-Seq
Molecule type: RNA
Matrix: in vitro
Concentration: 365 nM
Notes: natural RNA segment, single round, ends assumed
Reference: no-protein control
Reading: higher = stronger binding
Shared flanks, not repeated: GGGAGUUCUACAGUCCGACGAUC … UGGAAUUCUCGGGUGCCAA
Residues (chain): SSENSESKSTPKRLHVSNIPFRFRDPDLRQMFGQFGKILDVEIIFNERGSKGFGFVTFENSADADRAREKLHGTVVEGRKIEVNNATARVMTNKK
| Strand | RBNS enrichment (R) |
| --- | --- |
| UGCCUACAGCCUGCAGUCUGGAGACAAGCUCUUCCGGAGUGCUCUGGGAGCCAGGCCAGGGUGUGAGGGAGGUGCAGAGGCAUCCGGGGCGGGAGCAAGCCCCAGGUUGU | 0.378 |
| UCUGAUCCUGAGGCUAAGAAAGGGGAAGAGACCCUCAGGAGGCAGCUUCCACUCCAGGGCUCUUGAUCUCUGCUGGAUUGGGGGUGGCCACCUCAGAAACUUCCACCCUC | 0.599 |
| AGUGCCCUAUAAUCCCUCCCCCCUUUCUAAUUCAAUAUCUGGAGUAAGGAAUUCUUGGGUAGGGCACAGGGAUGGGGUUGCCAGCUUCUUCUUUCUUGUGGUGGGGCUCA | 0.534 |
| CCCUUCCUGGCCCAAGAGAGCAUCCAGAAGGCAGUAGGACCUGGUUUUUCAGGUACUGGGAGCCGGGGGCUCACUGCUUGCACUGUGCUUAGGGUAGGGAUGGUAAAUAU | 0.503 |
| UGGGGGGAAGGAUUAUUAUUCAUGUUAUUUUCCCUGCCCAAGACUUUAUUUAACCCUGGACUCCGUUUACACAGACAAAGUGACAUCAGAAGGCUGAGCACUUAUCUGGA | 0.789 |
| UCCCCACUGUAGGGGGAAGGAAGGGAGUGACUUCAGUGGGUUCUCUACCAAAAACAGGGCUAAGGGCUGGAGAUGGAUCCCCGUUCCUUGUCCAGCCUCCUGCUACCGCU | 0.244 |
| UACUGAGAAUCUAGGCCACCCCAACCUCUGUUCCCCACCCAGUUCUUCAUUUGGAGGAAUCACCCCAUUUCAGAGUUAUCAAGAGACACUCCCCCCUCCAUUCCCACCCC | 0.779 |
| CAGGAAAAGAAUCUCUGUGCUCUAAAUCUCGGUCAGAGCUGUGGCCUCCCCCUUGCCUUUAACCUCUAGUUUAGUCUUUUCCUCCAGGCAUGAAAAAUAUGACUAACCUG | 0.825 |
| GCUUUUCUGUCUUCUUCAACCUGGGAGAGACCCUGAAUUUGAGUGUGUUCUCUAAUCAAUAGUGGUUUAGCUUUCUUUUCUAUUUCACUCGUUUCUAGGGUUUUUUAUUU | 0.639 |
| CCUGAAAUAUUAAGGGCAGUUUGCUUCUAGUUUGGGGAUUGCGCUAGCCCAAUGAAGGUGAUGAAGCUUUUGGAUUUGGAGGGUAAAAGCUCCUUCACACCCCUUCCAAA | 0.304 |
| AGGACAUAUUCACAGUGAACAUAACUGUAACAUAUAUGAAAGGCUUCUGGGACUUGAAAUCAAAUGUUUGGGAAUGGUGCCCUUGGAGGCAACCUCCCAUUUUAGAUGUU | 0.444 |
| AGAUGGCAUCUCAUCGAUGAGAGAGAAUCACAAUCAGAAUGGAAGCACUUUGAGUAUCUGAAGAGUGAGAGCAUUCAUGUUUGACAGGUCCUGCUUCCCACUAUCCUUUU | 0.323 |

Study 2
Target: ABI1, truncated, D143A, DHFR fusion (Arabidopsis thaliana)
Technique: DHFR PCA, deep sequencing
Matrix: yeast
Notes: methotrexate growth selection, single substitutions
Added: (+)-ABA 0.0091 µM
Reference: wild-type fitted maximum
Reading: higher = stronger binding
Parent: PYL1, truncated, DHFR fusion (Arabidopsis thaliana); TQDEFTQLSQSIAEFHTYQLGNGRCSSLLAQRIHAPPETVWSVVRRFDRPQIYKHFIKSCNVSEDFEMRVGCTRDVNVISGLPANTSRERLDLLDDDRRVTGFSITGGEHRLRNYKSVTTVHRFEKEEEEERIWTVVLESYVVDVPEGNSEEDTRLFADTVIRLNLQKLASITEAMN
| Substitution | relative binding score |
| --- | --- |
| E147G | -2.17% |
| I52M | 39.3% |
| I172L | 19.9% |
| V137A | 1.82% |
| V161Q | 35.4% |
| L169R | -1.61% |
| V70L | 3.39% |
| T6K | 53.5% |
| N22F | 11.2% |
| M176R | 6.1% |
| E89K | -6.99% |
| V78E | -6.31% |
| T6S | 33.7% |
| R132L | 17.2% |
| L82I | 30.3% |
| I33K | -9.28% |
| Q19K | 33.7% |

Study 3
Target: Interferon regulatory factor 7, full length, phosphomimetic (IRF7, Homo sapiens, UniProt Q92985, residues 1-503, S471D/S472D/S475D/S476D/S477D/S483D/S484D/S487D)
Chain of UniProt Q92985 (whole entry, unmodified, looked up): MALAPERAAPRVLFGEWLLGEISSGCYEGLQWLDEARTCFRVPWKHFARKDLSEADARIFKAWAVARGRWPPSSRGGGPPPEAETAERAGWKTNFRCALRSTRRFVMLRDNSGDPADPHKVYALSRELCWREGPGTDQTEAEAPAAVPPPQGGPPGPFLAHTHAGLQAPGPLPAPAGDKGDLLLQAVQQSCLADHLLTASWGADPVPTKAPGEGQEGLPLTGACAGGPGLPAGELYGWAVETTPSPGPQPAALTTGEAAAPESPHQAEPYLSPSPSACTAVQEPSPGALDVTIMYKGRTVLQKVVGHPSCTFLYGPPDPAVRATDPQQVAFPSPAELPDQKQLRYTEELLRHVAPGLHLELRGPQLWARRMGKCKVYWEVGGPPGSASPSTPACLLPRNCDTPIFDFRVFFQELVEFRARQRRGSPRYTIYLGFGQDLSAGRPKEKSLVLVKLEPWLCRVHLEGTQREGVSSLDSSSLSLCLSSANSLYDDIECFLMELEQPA
Technique: protein-binding microarray
Molecule type: double-stranded DNA, one strand shown
Matrix: in vitro
Concentration: 2200 nM top
Notes: 60-bp whole probe
Added: salmon DNA 0.4 mg/ml
Reference: random background probes
Reading: higher = stronger binding
Shared flanks, not repeated: GCCTAGCAC … GTCTTGATTCGCTTGACGCTGCTG
| Strand | fitted relative affinity [z-score] |
| --- | --- |
| TTAGGTTCCCTTTTACTTTAGTGCTAG | 2.63 |
| GACGATCTCAGTCTCGAGTCGTGCTAG | 0.618 |
| TCAAACATCATTTTTCCACTGTGCTAG | 1.08 |
| GACGGACTGGGTTTCGGGATGTGCTAG | 1.78 |
| AACGATTTCGGGTTTCGAGACGTGCTA | 5.41 |
| GACGATTTGGGGTTTCGAGACGTGCTA | 1.95 |
| GACGGTTTCGGGTATCGAGACGTGCTA | 5.67 |
| TACTCTCTCCATGTGTTTAAGTGCTAG | 1.81 |
| TTAGCTATCAGTATCGATTAGTGCTAG | 0.57 |
| TTAGGTATCGGGTTTCGGTAAGTGCTA | 1.73 |
| TCATTTTCCTATGTCATACTGTGCTAG | 4.26 |
| TTAGTACTGGGTATCGGTTAGTGCTAG | 0.626 |
| GACGCTTTCGGGACTGGAGACGTGCTA | 4.31 |
| AGATGGTCCTCTCTCTATTCGTGCTAG | 1.05 |
| GACGATATCGGGACTAGAGACGTGCTA | -0.236 |
| TTAGGGCTCCTTCTCCTTTAGTGCTAG | 0.219 |
| GACGATCCCAGTATCGAGACGTGCTAG | 0.459 |
| TCAGCTTCCTCTTTCTCACTGTGCTAG | 2.56 |

Study 4
Target: Histone acetyltransferase KAT6A, winged helix 2, GST fusion (KAT6A, Homo sapiens, UniProt Q92794, residues 85-181)
Technique: protein binding microarray
Molecule type: double-stranded DNA, one strand shown
Matrix: in vitro
Concentration: not given
Notes: 8-mer, flanks averaged, mean of 2 arrays, mostly near background
Reference: not given
Reading: higher = stronger binding
Construct (chain): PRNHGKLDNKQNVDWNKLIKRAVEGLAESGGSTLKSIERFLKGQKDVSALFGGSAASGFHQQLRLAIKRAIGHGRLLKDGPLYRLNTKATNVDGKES
| Strand | E-score |
| --- | --- |
| AGTAAACC | -0.0646 |
| ATGTTGAG | -0.0613 |
| ACGATTGG | -0.0199 |
| AATTCAAA | 0.068 |
| CGCGAGGC | 0.194 |
| CCGAGTAC | 0.0646 |
| AAACCACT | -0.0444 |
| TGCGGTAA | 0.123 |
| GGCATCCA | -0.094 |
| AATCACCT | -0.145 |
| GGTTCGTA | 0.0211 |
| ACTATACC | -0.138 |
| AAAATACC | 0.0296 |
| AGTCGAAG | 0.0734 |
| ACAAACCA | 0.126 |
| TGTAAACA | -0.121 |
| ACACACGG | 0.00979 |
| CACTCGCC | 0.228 |
| GGCCGATA | -0.0509 |
| ACGCTAAC | -0.025 |
| CTTACTGA | 0.0654 |
| CTTACGAC | -0.276 |
| ACATATGT | -0.109 |
| ACGTGATG | -0.079 |
| ACACCGGT | -0.12 |

Some of these lines once more (study 1):
| Strand | RBNS enrichment (R) |
| --- | --- |
| UCCCCACUGUAGGGGGAAGGAAGGGAGUGACUUCAGUGGGUUCUCUACCAAAAACAGGGCUAAGGGCUGGAGAUGGAUCCCCGUUCCUUGUCCAGCCUCCUGCUACCGCU | 0.244 |
| CCUGAAAUAUUAAGGGCAGUUUGCUUCUAGUUUGGGGAUUGCGCUAGCCCAAUGAAGGUGAUGAAGCUUUUGGAUUUGGAGGGUAAAAGCUCCUUCACACCCCUUCCAAA | 0.304 |
| UCUGAUCCUGAGGCUAAGAAAGGGGAAGAGACCCUCAGGAGGCAGCUUCCACUCCAGGGCUCUUGAUCUCUGCUGGAUUGGGGGUGGCCACCUCAGAAACUUCCACCCUC | 0.599 |
| AGGACAUAUUCACAGUGAACAUAACUGUAACAUAUAUGAAAGGCUUCUGGGACUUGAAAUCAAAUGUUUGGGAAUGGUGCCCUUGGAGGCAACCUCCCAUUUUAGAUGUU | 0.444 |
| CCCUUCCUGGCCCAAGAGAGCAUCCAGAAGGCAGUAGGACCUGGUUUUUCAGGUACUGGGAGCCGGGGGCUCACUGCUUGCACUGUGCUUAGGGUAGGGAUGGUAAAUAU | 0.503 |
